Results gathered from unrelated publications.
Every numbered part comes from another study and shows a few of its results, in no order. Substitutions count along the parent as printed.

Block 1
Target: CCND3, cyclin fold, Cln2 fusion (human)
Technique: yeast growth competition, sequencing
Sample: yeast
Setting: weak parent motif
Relative to: not given
Reading: higher = stronger binding
Starting sequence: E2F7 docking peptide (human); SSAQRRLEIPSGG
Substitution | normalised enrichment score
SSAQARLEIPSGG [R5A] | 0.137
SSAQARAEIPSGG [R5A L7A] | 0.047
SSAQRRLELPSGG [I9L] | 0.0641
SSAQKRLELPSGG [R5K I9L] | 0.141
ASAQRRLEIPSGG [S1A] | 0.163
SSAQRRLEIPAGG [S11A] | 0.0575
SSAQRRLEIPSAG [G12A] | 0.0287
SAAQRRLEIPSGG [S2A] | 0.111
SSAQKRLEIPSGG [R5K] | -0.232
SSAQRRLEAPSGG [I9A] | 0.112

Block 2
Target: Interferon regulatory factor 7, full length, phosphomimetic (IRF7, Homo sapiens, UniProt Q92985, residues 1-503, S471D/S472D/S475D/S476D/S477D/S483D/S484D/S487D)
Technique: protein-binding microarray
Molecule type: double-stranded DNA, one strand shown
Sample: in vitro
Tested at: 2200 nM top
Setting: 60-bp whole probe
With: salmon DNA 0.4 mg/ml
Relative to: random background probes
Reading: higher = stronger binding
Constant ends, left off below: GCCTAGCAC … GTCTTGATTCGCTTGACGCTGCTG
Construct (chain): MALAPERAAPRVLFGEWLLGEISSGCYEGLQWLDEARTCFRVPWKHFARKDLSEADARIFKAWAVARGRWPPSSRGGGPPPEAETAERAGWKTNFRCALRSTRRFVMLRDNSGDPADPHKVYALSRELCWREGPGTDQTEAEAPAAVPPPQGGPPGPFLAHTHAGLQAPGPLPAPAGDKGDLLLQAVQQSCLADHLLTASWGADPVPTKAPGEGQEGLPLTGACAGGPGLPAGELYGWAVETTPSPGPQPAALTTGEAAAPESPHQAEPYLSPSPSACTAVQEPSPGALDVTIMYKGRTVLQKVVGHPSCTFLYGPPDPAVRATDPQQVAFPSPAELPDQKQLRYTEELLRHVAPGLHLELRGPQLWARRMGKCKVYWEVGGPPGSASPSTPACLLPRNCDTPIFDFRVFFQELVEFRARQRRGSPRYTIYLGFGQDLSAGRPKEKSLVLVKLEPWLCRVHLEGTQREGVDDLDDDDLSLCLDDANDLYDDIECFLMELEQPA
Oligonucleotide | fitted relative affinity [z-score]
GAGGGTCTCGGTATCGGGACGTGCTAG | -0.438
TCACATTTCCTTTACATACTGTGCTAG | 3.24
GACGGACTGGACTTTTGGGACGTGCTA | -0.566
TTAGGTCTCCTAATGCTTTAGTGCTAG | 0.226
TCATTTTTCCCCTGCACACTGTGCTAG | 2.79
CCATTCTTGGGACTCACCTGGTGCTAG | 1.11
GACGGGCTGGGTATCGGGACGTGCTAG | -1.21
GTCTGTTTGGGTCTTGTCTGGTGCTAG | 1.32
TTGGGTCTGGGTATTTTTCTGTGCTAG | 0.00274
GACGGTATCGACACTGGGGGCGTGCTA | 0.186
TTATGTCTCGGTTTCGGTTAGTGCTAG | 7.25
GACGATATCGGTTTCGGGACGTGCTAG | 3.92
TTGGGTCTCGGACTGGGTTAGTGCTAG | -0.232
TTAGGTTTCGGGACTGTGTTAGTGCTA | 3.23
TTAGGTTTAGGTATCGGTTAGTGCTAG | 0.759
TCAAGTTTCATTCCTGAACTGTGCTAG | 2.52

Block 3
Target: ABI1, truncated, D143A, DHFR fusion (Arabidopsis thaliana)
Technique: DHFR PCA, deep sequencing
Sample: yeast
Setting: methotrexate growth selection, single substitutions
With: (+)-ABA 710 µM
Relative to: wild-type fitted maximum
Reading: higher = stronger binding
Starting sequence: PYL1, truncated, DHFR fusion (Arabidopsis thaliana); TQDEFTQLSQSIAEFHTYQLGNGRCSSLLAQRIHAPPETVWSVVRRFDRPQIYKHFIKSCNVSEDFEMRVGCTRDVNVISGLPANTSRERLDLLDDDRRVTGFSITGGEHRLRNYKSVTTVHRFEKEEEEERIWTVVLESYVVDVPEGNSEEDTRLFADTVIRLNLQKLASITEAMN; partner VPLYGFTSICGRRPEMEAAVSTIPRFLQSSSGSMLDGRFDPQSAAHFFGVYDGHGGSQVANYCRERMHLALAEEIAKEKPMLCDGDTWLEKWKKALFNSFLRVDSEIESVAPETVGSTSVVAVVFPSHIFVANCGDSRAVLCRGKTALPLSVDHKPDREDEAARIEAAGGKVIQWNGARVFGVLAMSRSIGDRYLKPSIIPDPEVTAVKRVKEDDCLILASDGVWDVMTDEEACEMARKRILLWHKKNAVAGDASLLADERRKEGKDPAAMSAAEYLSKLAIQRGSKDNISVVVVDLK
Substitution | relative binding score [%]
D153M | 42.2
D97H | 116
A84C | 88.6
R74E | -12.2
K126A | 113
R69I | 99.8
N22P | 101
R90P | 2.36
S80N | 78.3
V76G | -6.46

Block 4
Target: Histone acetyltransferase KAT6A, winged helix 2, GST fusion (KAT6A, Homo sapiens, UniProt Q92794, residues 85-181)
Technique: protein binding microarray
Molecule type: double-stranded DNA, one strand shown
Sample: in vitro
Tested at: not given
Setting: 8-mer, flanks averaged, mean of 2 arrays, mostly near background
Relative to: not given
Reading: higher = stronger binding
Target sequence (chain): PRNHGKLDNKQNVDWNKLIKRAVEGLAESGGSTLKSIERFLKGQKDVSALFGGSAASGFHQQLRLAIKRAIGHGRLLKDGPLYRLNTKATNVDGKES
Oligonucleotide | E-score
ATGGCGTC | 0.0215
ACAAGTCA | -0.131
GCGAAGAA | 0.0957
CTTAGTGA | -0.151
GAGGGATC | -0.0406
AGAGCGAA | 0.131
CAGTAACC | -0.0144
GCTTTAGA | 0.0824
ATATCCAT | -0.011
ACCACTAA | 0.0683
ATCGCAAG | 0.142
CTATCCAA | -0.208
CTCGGGAA | 0.166
CACCAGCA | 0.0159
ACGGCTAC | 0.0156
ACCAGAAA | -0.0108
CATAAAAG | -0.0749
CAGACACG | -0.0059
AAACGAAC | 0.13
GCAAGGAC | 0.0202
ACATTATG | -0.066
CTACTGAA | -0.0383
CACAACTG | -0.171
CTGGATCC | 0.0379
GAGGCCCA | 0.0603

Other studies, line by line
Molecule | target | assay | test system | conditions | scale | quantity | value
PhoQ, residues 284 288 289 292 302 303 NLMGRA | PhoP, residues 12 14 15 18 19 TTLRV (Escherichia coli, UniProt P23836) | Sort-seq, refers to: YFP reporter | E. coli | PhoQ-PhoP variant library, with: 10 µM Mg2+ | relative to: high Mg2+ state, higher = stronger signaling | fold induction | 5.04

Repeated from above (block 4):
Oligonucleotide | E-score
CTTAGTGA | -0.151
AAACGAAC | 0.13
ACCACTAA | 0.0683
GAGGGATC | -0.0406
AGAGCGAA | 0.131
CAGTAACC | -0.0144
ATGGCGTC | 0.0215
